Results pooled from the literature.
Every numbered part comes from another study and shows a few of its results, in no order. Substitutions count along the parent as printed.

Study 1 — technique: RNA Bind-n-Seq; molecule type: RNA; matrix: in vitro; tested at: 365 nM; reference: no-protein control; direction: higher = stronger binding; endpoint: RBNS enrichment (R)
Target: RNA binding protein fox-1 homolog 2, RRM domain, GST-SBP tag (RBFOX2, Homo sapiens, UniProt O43251-10, residues 100-194)
Notes: natural RNA segment, single round, ends assumed
Target sequence (chain): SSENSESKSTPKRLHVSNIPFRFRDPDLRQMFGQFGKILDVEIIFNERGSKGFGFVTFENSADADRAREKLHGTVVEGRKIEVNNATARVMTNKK
Sequence = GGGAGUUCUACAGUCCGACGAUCUGCCAUGGCCCCGAACCUGCAAUUCCAUCCUAGCGCAGAAGCAUGUGCCUGCCACCUGCUGCCCCUGCAGAGUCAUGUGUGUUUGUGGUGGGCAUUUUAAAUAAUUAUUUUGGAAUUCUCGGGUGCCAA; result = 5.87
Sequence = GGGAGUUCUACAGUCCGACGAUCCAAACAAUAAAAAAUUGUAUUUUUUCAAUAUUGUAUAAACAAUAGUGUUCUAAUUACCUUAAAAAAAAAUAAUGACCAGUUAAGAAUUGCUUUUGAUCUUGUCAAAAAACUGGAAUUCUCGGGUGCCAA; result = 0.729
Sequence = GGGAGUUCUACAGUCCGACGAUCAAUUUAGUUAUCAAUUCAAUAUAGCUCUGUUGAUUAAAUAGCCGAUAGUAUUGUGGCUCUCCUCUUUGACUAUGAAAAUAUAGAGAAAGUUUUUUCUUUAAGGCUUUUUUUGGAAUUCUCGGGUGCCAA; result = 0.309
Sequence = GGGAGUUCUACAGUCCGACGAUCUAAUCCCCAUAUUCUUCUACUGCCCUUAACUCUGGUAUACACCAAAAAGAAAUCUUUACUUUCCUUGUUUUAUCAUUAUAAAAAUAAAGUAUUUUGCUAGUAUGGAAACAUGGAAUUCUCGGGUGCCAA; result = 0.755
Sequence = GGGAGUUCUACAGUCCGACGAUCGACCAAGAAGAGAGGCUUGUUGGAAUCAAUUCUGCACAAUAGCCCAUGCUGUAAGCUCAUAGAAGUCACUGUAACUGUAGUGUGUCUGCUGUUACCUAGAGGGUCUCACCUGGAAUUCUCGGGUGCCAA; result = 0.347
Sequence = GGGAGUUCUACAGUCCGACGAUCUCUCAGUUUGUUUUCAAUACAAACAGCAACCACUGAAAUGCAGAAAAUGGUAAUCAAGUGUGAUGUUUCUAUAAAAAUAAUUGAGAUUCACAUGUAAUAGACCCUUUAGCUGGAAUUCUCGGGUGCCAA; result = 0.288
Sequence = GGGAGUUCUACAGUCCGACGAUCAACAGUAAUGUUGAUUUCUAGUUAUUUAUUCUGGGAAUGUAUAGUAUUUGAAAACAGAAAUUGGUACCUUGCACACAUCAUCUGUAAACUGUUCAGUUUAAAAUACUGUAUGGAAUUCUCGGGUGCCAA; result = 1.28
Sequence = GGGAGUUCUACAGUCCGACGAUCUGUGAUGUUUGACUGUACCAUUGACUGUUAUGGAAGUUCAGCGUUGUAUGUCUCUCUCUACACUGUGGUGCACUUAACUUGUGGAAUUUUUAUACUAAAAAUGUAGAAUAUGGAAUUCUCGGGUGCCAA; result = 2.62
Sequence = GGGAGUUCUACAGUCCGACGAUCAGUUGGGUUUCUGGCUUGAGAUGAAUCCAAGCAGCAGAAUGAGCCAGGAGUAGCAGGAGAUGGGCAAAGAAAACUGGGGUGCACUCAGCUCUCACAGGGGUAAUCAUCUCUGGAAUUCUCGGGUGCCAA; result = 0.487
Sequence = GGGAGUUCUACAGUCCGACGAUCGUUUAUAAUGUUCUGGCGUUGUAGCAGAAGGUUGGAUGACACACAAGCAUCUGAAACGUGCCAGCCUCUGCGGUUCCCGUUAUCAUCUUAGGGGGCAGAAGCCAAUGGGUUGGAAUUCUCGGGUGCCAA; result = 0.618
Sequence = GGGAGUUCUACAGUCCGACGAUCGCGCCGCAGCUGCAGCCUGACAGGAUGCAGUGGGGGCGUUCCUGCCCCGAGGACUGUGGCAUUGUCACCUUCACAGCAGACAGAGCUGCCAGGCCAUGAUGGGCUGGCGAUGGAAUUCUCGGGUGCCAA; result = 0.241
Sequence = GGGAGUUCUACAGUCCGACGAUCAGGCCUUGGAUUUAUAUUGCACUUCAUAGACCCCUAGGCUGCUGUGCGGUGGGACUCCACAUGCGCCGGAAGGAGCUUCAGGUGAGCACUGCUCAUGUGUGGAUGCCCCUUGGAAUUCUCGGGUGCCAA; result = 2.39

Study 2 — target: CCNB1, cyclin fold, Cln2 fusion (human); technique: yeast growth competition, sequencing; matrix: yeast; notes: strong parent motif; reference: not given; direction: higher = stronger binding; endpoint: normalised enrichment score
Starting sequence: E2F1 docking peptide (human); PPVKRRLDFETDH; partner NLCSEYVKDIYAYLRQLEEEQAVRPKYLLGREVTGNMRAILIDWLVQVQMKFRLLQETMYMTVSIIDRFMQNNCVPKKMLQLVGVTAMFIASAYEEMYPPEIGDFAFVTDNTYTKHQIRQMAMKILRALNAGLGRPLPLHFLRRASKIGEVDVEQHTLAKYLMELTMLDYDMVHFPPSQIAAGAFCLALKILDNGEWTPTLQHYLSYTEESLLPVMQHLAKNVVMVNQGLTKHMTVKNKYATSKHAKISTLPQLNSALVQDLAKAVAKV
Change = PPVKRRLDFEKDH [T11K]; result = 4.62
Change = PPVKRRLDFETNH [D12N]; result = 5.06
Change = PPVKRRLDFLTDH [E10L]; result = 3.93
Change = PPVKRRLDFEMDH [T11M]; result = 5.11
Change = PPVKRILDFETDH [R6I]; result = 1.92
Change = PPVKRDLDFETDH [R6D]; result = 0.06
Change = PPVKRHLDFETDH [R6H]; result = 3.02

Study 3 — technique: DHFR PCA, deep sequencing; matrix: yeast; added: (+)-ABA 710 µM; reference: wild-type fitted maximum; direction: higher = stronger binding; endpoint: relative binding score
Target: ABI1, truncated, D143A, DHFR fusion (Arabidopsis thaliana)
Notes: methotrexate growth selection, single substitutions
Starting sequence: PYL1, truncated, DHFR fusion (Arabidopsis thaliana); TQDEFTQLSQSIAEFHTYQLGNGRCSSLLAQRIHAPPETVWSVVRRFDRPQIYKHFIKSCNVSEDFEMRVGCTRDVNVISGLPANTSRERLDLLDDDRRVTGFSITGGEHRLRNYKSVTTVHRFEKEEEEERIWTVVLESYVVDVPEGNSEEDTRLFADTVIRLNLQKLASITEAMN; partner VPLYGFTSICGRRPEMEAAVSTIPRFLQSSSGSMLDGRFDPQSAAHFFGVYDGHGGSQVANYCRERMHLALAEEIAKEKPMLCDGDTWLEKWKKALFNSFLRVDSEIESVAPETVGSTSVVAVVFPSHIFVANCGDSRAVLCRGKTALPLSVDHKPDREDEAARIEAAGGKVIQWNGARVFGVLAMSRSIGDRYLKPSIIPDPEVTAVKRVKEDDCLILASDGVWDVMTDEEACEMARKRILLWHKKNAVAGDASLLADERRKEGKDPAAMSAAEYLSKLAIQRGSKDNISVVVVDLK
Change = S27Q; result = 99.7%
Change = N177C; result = 121%
Change = E89C; result = -15.2%
Change = R99N; result = 104%
Change = R155W; result = 57.9%
Change = E130Y; result = 105%
Change = M68R; result = 86.8%
Change = F103A; result = -8.1%
Change = T73W; result = 99.9%

Mixed results
Substance = PhoQ, residues 284 288 289 292 302 303 ASASEQ; target = PhoP, residues 12 14 15 18 19 LYFRQ (Escherichia coli, UniProt P23836); assay = Sort-seq, refers to: YFP reporter; system = E. coli; conditions = PhoQ-PhoP variant library, added: 10 µM Mg2+; how to read = reference: high Mg2+ state, higher = stronger signaling; endpoint = fold induction; result = 28.7

Repeated from above (study 3):
Change = N177C; result = 121%
Change = E89C; result = -15.2%
